Experimental data collected from several papers.
Protocols differ between the studies behind these lines. Numbers after ± are the reported error.
Cell line: NCI/ADR-RES

| SMILES | effect on | action | technique | tested at | time | measurement | result |
| --- | --- | --- | --- | --- | --- | --- | --- |
| CC(=O)OC[C@H]1O[C@@H](Sc2sc(C(=O)c3ccc(C)cc3)c(N)c2-c2nc3ccccc3s2)[C@H](OC(C)=O)[C@@H](OC(C)=O)[C@@H]1OC(C)=O | – | – | SRB | 10 µM | 48 h | growth | 62.9% |
| COc1cc(CNC(=O)C[C@H](C)CCC=C(C)C)ccc1OCc1cn(-c2cccc([N+](=O)[O-])c2)nn1 | – | – | sulforhodamine B | 10 µM | 48 h | growth percent | 3.67% |
| CC(=O)OC[C@H]1O[C@@H](Sc2sc(C(=O)c3ccc(Br)cc3)c(N)c2-c2nc3ccccc3s2)[C@H](OC(C)=O)[C@@H](OC(C)=O)[C@H]1OC(C)=O | – | – | SRB | 10 µM | 48 h | growth | 88.3% |
| COc1ccc(C2=Nn3c(NN=C4C(=O)N(Cc5ccccc5)c5ccc(Cl)cc54)nnc3SC2)cc1 | cell growth or viability | – | SRB | 10 µM | – | inhibition | 13% |
| CC/C=C\C/C=C\C/C=C\C/C=C\C/C=C\C/C=C\CCC(=O)Nc1ccn(C2OC(CO)C(O)C2(F)F)c(=O)n1 (stereo not shown) | cell growth or viability | – | SRB | – | – | GI50 | 0.0338 µM |
| COc1cc(CNC(=O)C[C@H](C)CCC=C(C)C)ccc1OCc1cn(-c2ccccc2)nn1 | – | – | SRB | 10 µM | 48 h | growth | 81.9% |
| CC(Cc1ccc(Cl)cc1)=C(c1ccc(Cl)cc1)c1ccc(OCCN(C)C)cc1 | cell growth or viability | – | – | – | – | GI50 | 4.8 µM |
| C=C1C(=O)OC2C1CCC1(C)CC1CCC1(C)OC21 (stereo not shown) | cell growth | inhibitor | Alamar blue | – | – | IC50 | 12 ± 2.5 µM |
| CC(=C(c1ccc(O)cc1)c1ccc(Cl)cc1)c1ccc(Cl)cc1 | cell growth or viability | – | – | – | – | GI50 | 0.69 µM |
| COc1cc(CNC(=O)C[C@H](C)CCC=C(C)C)ccc1OCc1cn(-c2ccc(Cl)cc2Cl)nn1 | – | – | SRB | 10 µM | 48 h | growth | 32.9% |

Repeated from above:
| SMILES | effect on | action | technique | tested at | time | measurement | result |
| --- | --- | --- | --- | --- | --- | --- | --- |
| CC(=O)OC[C@H]1O[C@@H](Sc2sc(C(=O)c3ccc(C)cc3)c(N)c2-c2nc3ccccc3s2)[C@H](OC(C)=O)[C@@H](OC(C)=O)[C@@H]1OC(C)=O | – | – | SRB | 10 µM | 48 h | growth | 62.9% |
| COc1cc(CNC(=O)C[C@H](C)CCC=C(C)C)ccc1OCc1cn(-c2cccc([N+](=O)[O-])c2)nn1 | – | – | sulforhodamine B | 10 µM | 48 h | growth percent | 3.67% |
